Measurements collected from several papers.
Compare with care: the assays were run in different laboratories. “And” joins repeats or separate records; there may be more than shown. ± marks the error that the study gave.

For `CC(C)Nc1cccnc1N1CCN(C(=O)c2cc3cc(NS(C)(=O)=O)ccc3[nH]2)CC1`, the IC90 was 47.7 nM (HIV-1; viral replication; human immunodeficiency virus 1).
`NCCOc1cc(NC(=O)c2cc(OCc3ccc(F)cc3)cc(C(=O)Nc3cc(OCCN)c4ccccc4n3)n2)nc2ccccc12` has a ΔTm of 9.4 ± 0.3 K (c-kit2 G-quadruplex DNA; FRET melting; 1 µM, pH 7.4, together with: 60 mM potassium).
Under “log2 fold change”, `Cc1n[nH]c2ccc(-c3cc(OC[C@@H](N)Cc4ccccc4)cnc3-c3ccoc3)cc12` is recorded as -0.428 (orf19.4575 kinase Candida albicans; MIB/MS competition binding; Candida albicans cell lysate; 100 nM; reference: DMSO, lower = stronger binding).
For `CSCC[C@H](NC(C)=O)C(=O)O`, the kcat was roughly 20 s⁻¹ (porcine kidney aminoacylase 1; substrate; without Co2+).
For `Cc1c(O)cccc1C(=O)N[C@@H](CSc1ccccc1)[C@H](O)CN1C[C@H]2CCCC[C@H]2C[C@H]1C(=O)NC(C)(C)C`, the IC90 was 42 nM (HIV-1; viral replication; human immunodeficiency virus 1).
`CN(C)CCCNc1cc2c(=O)n(CCCN(C)C)c(=O)c3c4[nH]c5ccccc5[nH]c4c4c(=O)n(CCCN(C)C)c(=O)c1c4c23` gave a ΔTm of 0.5 ± 0.1 °C (double-stranded DNA; FRET melting; 0.25 µM, K+ 100 mM).
For `N=C1NC(=O)/C(=C/c2ccc(O)cc2)S1`, the viability was 197% (OCI-Ly1; 0.1 µM, 120 h).
`COc1cc(C(=O)Nc2cc(OCCN3CCCC3)c3ccccc3n2)nc(C(=O)Nc2cc(OCCN3CCCC3)c3ccccc3n2)c1` has a ΔTm of 12.5 ± 1.1 K (human telomeric G-quadruplex DNA; FRET melting; 1 µM, pH 7.4, together with: 60 mM potassium).
With `NC(=O)C1=CN([C@@H]2O[C@H](COP(=O)(O)OP(=O)(O)OC[C@H]3O[C@@H](n4cnc5c(N)ncnc54)[C@H](O)[C@@H]3O)[C@@H](O)[C@H]2O)C=CC1` the kcat was 0.48 ± 0.02 s⁻¹ (FSP1 F15A mutant; substrate; together with: 100 µM co-substrate).
For `c1coc(-c2n[nH]cc2-c2ccnc3ccccc23)c1`, “log2 fold change” read 0.2 (KIN28 (Candida albicans); kinase binding, MIB/MS competition; Candida albicans lysate; 1 µM; reference: DMSO).
For `O=C(Nc1cc(OCCN2CCCC2)c2ccccc2n1)c1cc(OCCN2CCCC2)cc(C(=O)Nc2cc(OCCN3CCCC3)c3ccccc3n2)n1`, the delta Tm was 0.9 ± 0.2 K (double-stranded DNA; FRET melting; 1 µM, pH 7.4, 60 mM potassium, together with: oligonucleotide 200 nM).
The remaining binding of `C[C@@H]1CCN(c2nccc(-c3cnn4ncccc34)n2)C1` is reported as 100% and 85% and 67% and 76% (human kinase panel; KINOMEscan; concentration not given; reference: control).
`CC(Nc1nc(N2CCCC2)nc2ccccc12)c1ccccc1` (stereo not shown) — result for “cells with nuclear reporter”: 91.8% (transportin-1/2; FUS nuclear import, high content imaging; HeLa Kyoto reporter; 0.03 µM, 2 h).
`C#CCOc1cc(C(=O)Nc2cc(OCCN)c3ccccc3n2)nc(C(=O)Nc2cc(OCCN)c3ccccc3n2)c1` gave a ΔTm of 11.5 ± 1 K (c-kit2 G-quadruplex DNA; FRET melting; 1 µM, pH 7.4, together with: 60 mM potassium).
For `CN(C)CCCn1c(=O)c2cc(Br)c3c(=O)n(CCCN(C)C)c(=O)c4c5[nH]c6ccc([N+](=O)[O-])cc6[nH]c5c(c1=O)c2c34`, the ΔTm was 1.1 ± 0.6 °C (double-stranded DNA; FRET melting; 0.25 µM, K+ 100 mM).
`Oc1ccccc1-c1n[nH]cc1-c1ccnc2ccccc12`: “log2 fold change” 0.1 (KIN28 (Candida albicans); kinase binding, MIB/MS competition; Candida albicans lysate; 1 µM; reference: DMSO).
`Nc1nc2c(nc(Br)n2[C@@H]2O[C@@H]3COP(=O)(O)O[C@H]3[C@H]2O)c(=O)[nH]1` gave a steady-state current of -46 ± 17 pA (cone CNG channel; striped bass (Morone saxatilis), cone outer segment; 15 µM, -35 mV).
`CCCCCCCC(=O)OC[C@H](COP(=O)(O)O[C@@H]1[C@H](O)[C@H](O)[C@@H](OP(=O)(O)O)[C@H](OP(=O)(O)O)[C@H]1O)OC(=O)CCCCCCC`: “maximal open probability” 0.359 (Kv7.2/Kv7.3(EEE) mutant channel; channel activation, activator, activation curve fit; model 2).
`CN(C)CCCOc1cc(NC(=O)c2cccc(C(=O)Nc3cc(OCCCN(C)C)c4ccccc4n3)n2)nc2ccccc12` has a ΔTm of 30.7 ± 1.2 K (human telomeric G-quadruplex DNA; FRET melting; 1 µM, pH 7.4, together with: 60 mM potassium).
`N#Cc1ccc2c(-c3ccncc3)c(-c3ccc(F)cc3)nn2c1`: “log2 fold change” -0.21 (orf19.4575 kinase Candida albicans; MIB/MS competition binding; Candida albicans cell lysate; 1 µM; reference: DMSO, lower = stronger binding).
`Cc1cc(F)cc2c(CCC(=O)N[C@@H]3C(=O)NC[C@H]3O)c(-c3ccc(F)cc3)[nH]c12` gave an inhibition of -1% (sodium channel site 2; binding; 10 µM).
`NCCCOc1cc(NC(=O)c2cc(OCc3c[nH]nn3)cc(C(=O)Nc3cc(OCCCN)c4ccccc4n3)n2)nc2ccccc12` has a delta Tm of 0 ± 0.1 K (double-stranded DNA; FRET melting; 1 µM, pH 7.4, 60 mM potassium, together with: oligonucleotide 200 nM).
Under “log2 fold change”, `N#Cc1ccn2c(-c3ccncc3)c(-c3ccc(F)cc3)nc2c1` is recorded as 0.119 (orf19.4575 kinase Candida albicans; MIB/MS competition binding; Candida albicans cell lysate; 10 µM; reference: DMSO, lower = stronger binding).
`C[n+]1cccc2cc(C=NNC(=O)c3ccc4ccc5ccc(C(=O)NN=Cc6ccc7c(ccc[n+]7C)c6)nc5c4n3)ccc21.[I-].[I-]` has a delta Tm of 1.5 °C (human telomeric G-quadruplex DNA; UV melting; 3 µM, 100 mM potassium, together with: DNA 3 µM).
With `NCCOc1cc(NC(=O)c2cc(OCc3c[nH]nn3)cc(C(=O)Nc3cc(OCCN)c4ccccc4n3)n2)nc2ccccc12` the delta Tm was 0 ± 0.1 K (double-stranded DNA; FRET melting; 1 µM, pH 7.4, 60 mM potassium, together with: oligonucleotide 200 nM).
`CCN1CCN(Cc2ccc(NC(=O)c3cccc(Oc4ccnc5[nH]ccc45)c3)cc2C(F)(F)F)CC1` has an inhibition of greater than 96% (ABL/ARG kinases (human); kinase probe binding, inhibitor, KiNativ; Huh-7 cell lysate; 1.0 µM).
`Cn1cc2c(C(=O)O)ccc(NS(=O)(=O)c3ccc(OCC4CCC4)c(Cl)c3)c2n1` gave an IC50 of greater than 100000 nM (Cav1 calcium channel; antagonist).
For `CC[C@H](C)n1cc(C)c2c(C(=O)NCc3c(C)cc(C)[nH]c3=O)cc(-c3ccc(N4CCNCC4)nc3)cc21`, the viability was 130% (OCI-Ly1; 1 µM, 120 h).
`Cc1cccc(-c2[nH]c(C(C)(C)C)nc2-c2ccc3c(c2)OCO3)n1` has an inhibition of 12% (Ub^G76V-GFP reporter; reporter degradation; human cells; 12 µM).
The ΔTm of `NCCOc1cc(C(=O)Nc2cc(OCCN3CCCC3)c3ccccc3n2)nc(C(=O)Nc2cc(OCCN3CCCC3)c3ccccc3n2)c1` is reported as 16 ± 0.5 K (c-kit2 G-quadruplex DNA; FRET melting; 1 µM, pH 7.4, together with: 60 mM potassium).
The inhibition of `COc1cccc(Nc2nc(NCC3CCCO3)c3ccccc3n2)c1.Cl` (stereo not shown) is reported as 74.5% (Trypanosoma cruzi ribosome; translation, measured: Renilla luciferase; Trypanosoma cruzi extract; 40 µM).

Repeated from above:
`Cn1cc2c(C(=O)O)ccc(NS(=O)(=O)c3ccc(OCC4CCC4)c(Cl)c3)c2n1` gave an IC50 of greater than 100000 nM (Cav1 calcium channel; antagonist).
For `CC[C@H](C)n1cc(C)c2c(C(=O)NCc3c(C)cc(C)[nH]c3=O)cc(-c3ccc(N4CCNCC4)nc3)cc21`, the viability was 130% (OCI-Ly1; 1 µM, 120 h).
